Measurements pooled from the literature.
Each line is one published result; not all experiments were run side by side. ± gives the spread as reported.

SMILES = CC[C@H](C)[C@@H]1NC(=O)[C@H](CCCNC(=N)N)NC(=O)[C@H](CO)NC(=O)[C@H](CCC(=O)O)NC(=O)[C@H](CC(=O)O)NC(=O)CNC(=O)CNC(=O)[C@H]([C@@H](C)O)NC(=O)[C@H](Cc2ccccc2)NC(=O)[C@H](CO)NC(=O)[C@H]([C@@H](C)O)NC(=O)[C@H](C)NC(=O)[C@@H]2CSSC[C@@H](C(=O)N[C@@H](Cc3ccc(O)cc3)C(=O)N[C@@H](Cc3ccccc3)C(=O)N[C@H](C(=O)N[C@H](C(=O)NCC(=O)O)[C@@H](C)O)[C@@H](C)O)NC(=O)[C@H]([C@@H](C)O)NC(=O)[C@H](CSSC[C@H](NC(=O)[C@H](CCC(=O)O)NC(=O)[C@H](CO)NC(=O)[C@H](CCCCN)NC(=O)[C@H](Cc3ccc(O)cc3)NC(=O)[C@@H]3CCCN3C(=O)[C@H](Cc3ccccc3)NC(=O)[C@H](CCCCN)NC(=O)[C@H](CCCNC(=N)N)NC(=O)[C@H](CCCCN)NC(=O)[C@H](CCCCN)NC(=O)[C@H](Cc3ccc(O)cc3)NC(=O)[C@@H]3CCCN3C(=O)[C@@H](NC(=O)[C@H](CC(=O)O)NC(=O)[C@H](CCCCN)NC(=O)[C@H](CCCCN)NC(=O)[C@@H](NC(=O)[C@@H](NC(=O)[C@@H](N)CCC(=O)O)C(C)C)[C@@H](C)CC)[C@@H](C)O)C(=O)N[C@@H](CC(C)C)C(=O)N[C@@H](CCCCN)C(=O)N[C@@H](C)C(=O)N2)NC(=O)[C@H](CCCCN)NC(=O)[C@H](Cc2ccccc2)NC(=O)[C@H](Cc2ccccc2)NC(=O)CNC(=O)[C@@H]2CCCN2C(=O)[C@H](CCCCN)NC(=O)CNC(=O)[C@H](CCC(=O)O)NC(=O)[C@H](CCC(N)=O)NC1=O; target = Potassium voltage-gated channel subfamily KQT member 2 (KCNQ2, Homo sapiens, UniProt O43526); test = potassium current, whole-cell patch clamp; test system = HEK-293T; measurement = Hill slope; result = 0.99 ± 0.06
SMILES = COc1cc([N+](=O)[O-])cc(/C=N/NC(=O)[C@H]2COc3ccccc3O2)c1O; target = uncharacterized protein (Candidatus Liberibacter solanacearum, UniProt A0A094YYW1); test = inhibitor; setting = concentration not given, outcome inhibited; scale = baseline: mock; measurement = phosphatase activity; result = inhibited
SMILES = CSCC[C@@H](C=O)NC(=O)[C@H](CC(C)C)NC(=O)[C@H](CC(C)C)NC(C)=O; target = Replicase polyprotein 1ab, main protease (rep, Middle East respiratory syndrome-related coronavirus, UniProt K9N7C7); test = thermal stability; measurement = ΔTm; result = 2.53 °C
SMILES = CC(C)C[C@@H]1NC(=O)[C@H](CCCNC(=N)N)NC(=O)[C@@H]2CCCN2C(=O)[C@@H]2CSSC[C@H](NC(=O)CNC(=O)[C@@H]3CCCN3C(=O)[C@H](CCCCN)NC(=O)[C@H](CC(=O)O)NC(=O)[C@@H](NC(=O)CN)C(C)C)C(=O)N[C@@H](CCCNC(=N)N)C(=O)N[C@@H](Cc3ccc(O)cc3)C(=O)N[C@@H](CC(C)C)C(=O)N[C@@H](Cc3ccccc3)C(=O)NCC(=O)NCC(=O)N[C@H]3CSSC[C@H](NC(=O)CNC1=O)C(=O)N[C@@H](CCCCN)C(=O)NCC(=O)N[C@@H](CCCCN)C(=O)NCC(=O)N[C@@H](Cc1c[nH]cn1)C(=O)N[C@@H](CC(=O)O)C(=O)N[C@@H](Cc1ccc(O)cc1)C(=O)N[C@H](C(=O)N[C@@H](C)C(=O)N[C@@H](Cc1c[nH]c4ccccc14)C(=O)N[C@@H](CC(=O)O)C(=O)NCC(=O)N[C@H](C(=O)N[C@@H](Cc1ccccc1)C(=O)N[C@@H](CO)C(=O)N[C@@H](CC(=O)O)C(=O)O)[C@@H](C)O)CSSC[C@H](NC(=O)[C@H](CC(=O)O)NC(=O)[C@H](CC(=O)O)NC(=O)[C@H](CC(=O)O)NC(=O)[C@H](CO)NC(=O)[C@H](CCCCN)NC3=O)C(=O)N2; target = Sodium channel protein type 10 subunit alpha (SCN10A, Homo sapiens, UniProt Q9Y5Y9); test = open-state inactivation; setting = 1 µM, test potential -10 mV; measurement = inactivation time constant; result = 26.2 ± 3.6 ms
SMILES = O=C(C=Cc1ccc(O)c(O)c1)OC1CC(O)(C(=O)O)CC(OC(=O)C=Cc2ccc(O)c(O)c2)C1O (stereo not shown); target = Spike glycoprotein (Severe acute respiratory syndrome coronavirus 2, UniProt P0DTC2); test = binding, BLI; measurement = koff; result = 0.00371 s⁻¹
SMILES = CC(=O)NCCOCCOCCOCCn1cc(CNC(=O)c2cc(O[C@H]3O[C@H](CO)[C@H](O)[C@H](O)[C@H]3O)cc([N+](=O)[O-])c2)nn1; target = ctxB (Vibrio cholerae, UniProt P01556); test = binding; scale = baseline: galactose; measurement = relative potency; result = 27 fold
SMILES = CC(=O)N[C@@H](Cc1cn([C@@H]2O[C@H](CO)[C@H](O)[C@H](O)[C@H]2O)nn1)C(=O)NCC(=O)N[C@@H](C)C(=O)N[C@@H](CCC(=O)O)C(=O)N[C@@H](C)C(=O)N[C@@H](CCC(=O)O)C(=O)N1CCC[C@H]1C(=O)N[C@@H](CCC(=O)O)C(=O)NCC(=O)N[C@@H](C)C(=O)N[C@@H](CCC(=O)O)C(=O)N[C@@H](C)C(=O)N[C@@H](CCC(=O)O)C(=O)N1CCC[C@H]1C(=O)N[C@@H](CCC(=O)O)C(=O)NCC(=O)N[C@@H](C)C(=O)N[C@@H](CCC(=O)O)C(=O)N[C@@H](C)C(=O)N[C@@H](CCC(=O)O)C(=O)N1CCC[C@H]1C(=O)N[C@@H](CCC(=O)O)C(=O)NCC(=O)N[C@@H](C)C(=O)N[C@@H](CCC(=O)O)C(=O)N[C@@H](C)C(=O)N[C@@H](CCC(=O)O)C(=O)N1CCC[C@H]1C(=O)N[C@@H](CCC(=O)O)C(=O)NCC(=O)N[C@@H](C)C(=O)N[C@@H](CCC(=O)O)C(=O)N[C@@H](C)C(=O)N[C@@H](CCC(=O)O)C(=O)N1CCC[C@H]1C(=O)N[C@@H](Cc1cn([C@@H]2O[C@H](CO)[C@H](O)[C@H](O)[C@H]2O)nn1)C(=O)NCC(=O)NCC(=O)NCC(=O)NCC(N)=O; target = ctxB, pentamer (Vibrio cholerae, UniProt P01556); setting = concentration not given; scale = baseline: galactose; measurement = inhibition potency; result = 160 fold
SMILES = CS(=O)(=O)NCC1CCOC2(CCN(C(=O)C3(c4ccccc4)CCCC3)CC2)C1 (stereo not shown); target = Polyprotein P1234, nsP2 (Chikungunya virus, UniProt Q8JUX6); test = nsP2 ATPase activity, inhibitor, ADP-Glo; setting = high micromolar; measurement = nsP2 ATPase inhibition; result = active
SMILES = O=C1SCCC1NC(C(=O)NCc1ccccc1)C1CC1 (stereo not shown); target = Thiosulfate sulfurtransferase (TST, Homo sapiens, UniProt Q16762); test = activator, measured: potassium cyanide; setting = 34.2 µM, with: sodium thiosulfate 60 mM; measurement = Km; result = 5.5 ± 0.87 mM
SMILES = CC(C)(C)OC(=O)C[C@H](NC(=O)OCc1ccccc1)C(=O)CBr; target = Replicase polyprotein 1ab, main protease (rep, Severe acute respiratory syndrome-related coronavirus, UniProt P0C6X7); test = isothermal titration calorimetry; setting = pH 7.4, 25 °C, 2% DMSO; measurement = Gibbs free energy of binding; result = -8.3 kcal/mol

Some of these lines once more:
SMILES = CC[C@H](C)[C@@H]1NC(=O)[C@H](CCCNC(=N)N)NC(=O)[C@H](CO)NC(=O)[C@H](CCC(=O)O)NC(=O)[C@H](CC(=O)O)NC(=O)CNC(=O)CNC(=O)[C@H]([C@@H](C)O)NC(=O)[C@H](Cc2ccccc2)NC(=O)[C@H](CO)NC(=O)[C@H]([C@@H](C)O)NC(=O)[C@H](C)NC(=O)[C@@H]2CSSC[C@@H](C(=O)N[C@@H](Cc3ccc(O)cc3)C(=O)N[C@@H](Cc3ccccc3)C(=O)N[C@H](C(=O)N[C@H](C(=O)NCC(=O)O)[C@@H](C)O)[C@@H](C)O)NC(=O)[C@H]([C@@H](C)O)NC(=O)[C@H](CSSC[C@H](NC(=O)[C@H](CCC(=O)O)NC(=O)[C@H](CO)NC(=O)[C@H](CCCCN)NC(=O)[C@H](Cc3ccc(O)cc3)NC(=O)[C@@H]3CCCN3C(=O)[C@H](Cc3ccccc3)NC(=O)[C@H](CCCCN)NC(=O)[C@H](CCCNC(=N)N)NC(=O)[C@H](CCCCN)NC(=O)[C@H](CCCCN)NC(=O)[C@H](Cc3ccc(O)cc3)NC(=O)[C@@H]3CCCN3C(=O)[C@@H](NC(=O)[C@H](CC(=O)O)NC(=O)[C@H](CCCCN)NC(=O)[C@H](CCCCN)NC(=O)[C@@H](NC(=O)[C@@H](NC(=O)[C@@H](N)CCC(=O)O)C(C)C)[C@@H](C)CC)[C@@H](C)O)C(=O)N[C@@H](CC(C)C)C(=O)N[C@@H](CCCCN)C(=O)N[C@@H](C)C(=O)N2)NC(=O)[C@H](CCCCN)NC(=O)[C@H](Cc2ccccc2)NC(=O)[C@H](Cc2ccccc2)NC(=O)CNC(=O)[C@@H]2CCCN2C(=O)[C@H](CCCCN)NC(=O)CNC(=O)[C@H](CCC(=O)O)NC(=O)[C@H](CCC(N)=O)NC1=O; target = Potassium voltage-gated channel subfamily KQT member 2 (KCNQ2, Homo sapiens, UniProt O43526); test = potassium current, whole-cell patch clamp; test system = HEK-293T; measurement = Hill slope; result = 0.99 ± 0.06
